Experimental data collected from several papers.
± gives the spread as reported.

For `Cc1cc(C#N)cc(C)c1Oc1nc(NC2CCN(Cc3ccc(S(C)(=O)=O)cc3)CC2)nc2cccnc12`, the EC50 was 0.0024 ± 0.00083 µM (HIV-1; viral replication, luciferase reporter; TZM-bl, NL4-3 wild type).
With `CN[C@H](C)C(=O)N[C@H](C(=O)N1CC[C@@H]2Oc3ccc(OC)c(c3)/C=C\NC(=O)[C@H](Cc3ccccc3)NC(=O)[C@H]21)C(C)C` the EC50 was 6.17 ± 0.5 µM (porcine epidemic diarrhea virus; viral cytopathic effect; Vero cells; 72 h).
With `Cc1cc(C#N)cc(C)c1Oc1nc(NC2CCN(Cc3ccc(C(N)=O)cc3)CC2)nc2ccccc12` the EC50 was 0.00182 ± 0.00061 µM (HIV-1; viral replication, luciferase reporter; TZM-bl, NL4-3 wild type).
For `CCCCCCSc1cccc(O)c(=O)c1O`, the EC50 was 50 µM (Hepatitis B virus; viral replication, inhibitor; HepDES19).
With `Cc1cc(C#N)cc(C)c1Oc1nc(NC2CCN(Cc3cccc(C(N)=O)c3)CC2)nc2ccccc12` the EC50 was 0.00855 ± 0.00286 µM (HIV-1; viral replication, luciferase reporter; TZM-bl, NL4-3 wild type).
`Nc1ncnc2c1c(F)cn2[C@@H]1O[C@H](CO)C[C@H]1O` gave an EC50 of 0.004 ± 0.001 µM (Trypanosoma evansi; parasite growth, resazurin; AnTat 3.3; 48 h plus 24 h resazurin).
`O=c1c(O)cccc(S(=O)(=O)Cc2ccccc2)c1O` gave an EC50 of 2.8 µM (Hepatitis B virus; viral replication, inhibitor; HepDES19).
For `C=C(C)[C@@H]1CCC=C2CC[C@]3(C)[C@H](CC[C@@H]4[C@@]5(C)CCCNC(C)(C)[C@@H]5CC[C@]43C)[C@H]21`, the EC50 was > 6 µM (Human alphaherpesvirus 1; cytopathic effect; HFF, E-377).
With `C=Cc1cn([C@@H]2O[C@H](CO)C[C@H]2O)c2ncnc(N)c12` the EC50 was 0.038 ± 0.002 µM (Trypanosoma evansi; parasite growth, resazurin; AnTat 3.3; 48 h plus 24 h resazurin).
The EC50 of `CC[C@H](C)[C@H](NC(=O)[C@@H](C)NC)C(=O)N1CC[C@@H]2Oc3ccc(OC)c(c3)/C=C\NC(=O)[C@H](C(C)C)NC(=O)[C@H]21` is reported as 13.4 ± 1.13 µM (porcine epidemic diarrhea virus; viral cytopathic effect; Vero cells; 72 h).
With `CC(C)S(=O)(=O)c1ccc(S(=O)(=O)C(C)C)c(O)c(=O)c1O` the EC50 was > 50 µM (Hepatitis B virus; viral replication, inhibitor; HepDES19).
`CC(C)Oc1ncnc2c1c(Cl)cn2[C@@H]1O[C@H](CO)[C@@H](O)[C@H]1O` has an EC50 of 0.2 ± 0.02 µM (Trypanosoma evansi; parasite growth, resazurin; AnTat 3.3; 48 h plus 24 h resazurin).
For `C=C(C)[C@@H]1CC[C@]2(C(=O)n3ccnc3)CC[C@]3(C)[C@H](CC[C@@H]4[C@@]5(C)CCCNC(C)(C)[C@@H]5CC[C@]43C)[C@@H]12`, the EC50 was > 6 µM (Human alphaherpesvirus 1; cytopathic effect; HFF, E-377).
For `CCCCSc1ccc(SCCCC)c(O)c(=O)c1O`, the EC50 was 12 µM (Hepatitis B virus; viral replication, inhibitor; HepDES19).
The EC50 of `Nc1ncnc2c1c(-c1ccccn1)cn2[C@@H]1O[C@H](CO)[C@@H](O)[C@H]1O` is reported as 0.04 ± 0.01 µM (Trypanosoma evansi; parasite growth, resazurin; AnTat 3.3; 48 h plus 24 h resazurin).
`CCCCS(=O)(=O)c1cccc(O)c(=O)c1O` has an EC50 of 1.9 µM (Hepatitis B virus; viral replication, inhibitor; HepDES19).
With `Cc1cc(C#N)cc(C)c1Oc1nc(NC2CCN(Cc3ccccc3Br)CC2)nc2ccccc12` the EC50 was 0.0339 ± 0.00843 µM (HIV-1; viral replication, luciferase reporter; TZM-bl, NL4-3 wild type).
`CCCCCCS(=O)(=O)c1ccc(S(=O)(=O)CCCCCC)c(O)c(=O)c1O` has an EC50 of 50 µM (Hepatitis B virus; viral replication, inhibitor; HepDES19).
`C=C(C)[C@@H]1CC[C@]2(C(N)=O)CC[C@]3(C)[C@H](CC[C@@H]4[C@@]5(C)CCCNC(C)(C)[C@@H]5CC[C@]43C)[C@@H]12` has an EC50 of > 6 µM (Human alphaherpesvirus 1; cytopathic effect; HFF, E-377).
The EC50 of `Nc1ncnc2c1c(Br)cn2[C@@H]1O[C@H](CO)C[C@H]1O` is reported as 0.0009 ± 0.0002 µM (Trypanosoma evansi; parasite growth, resazurin; AnTat 3.3; 48 h plus 24 h resazurin).
With `O=c1c(O)c(SCc2ccccc2)ccc(SCc2ccccc2)c1O` the EC50 was 11 µM (Hepatitis B virus; viral replication, inhibitor; HepDES19).
With `CC1(C)NCCC[C@]2(C)[C@H]3CC=C4[C@@H]5C[C@@](C)(CO)CC[C@]5(C)CC[C@@]4(C)[C@]3(C)CC[C@@H]12` the EC50 was > 6 µM (Human alphaherpesvirus 1; cytopathic effect; HFF, E-377).
With `Nc1ncnc2c1c(I)cn2[C@@H]1O[C@H](CO)C[C@H]1O` the EC50 was 0.004 ± 0.001 µM (Trypanosoma evansi; parasite growth, resazurin; AnTat 3.3; 48 h plus 24 h resazurin).
`CC(C)Sc1ccc(SC(C)C)c(O)c(=O)c1O` gave an EC50 of 12.7 µM (Hepatitis B virus; viral replication, inhibitor; HepDES19).
`N#C[C@]1(CO)O[C@@H](n2cnc3c(N)nc(N)nc32)C[C@@H]1O` gave an EC50 of 0.0005 µM (Hepatitis B virus; viral replication, inhibitor, qPCR; HepG2 2.2.15; 14 days).

Repeated from above:
`CC(C)Sc1ccc(SC(C)C)c(O)c(=O)c1O` gave an EC50 of 12.7 µM (Hepatitis B virus; viral replication, inhibitor; HepDES19).
For `Cc1cc(C#N)cc(C)c1Oc1nc(NC2CCN(Cc3ccc(S(C)(=O)=O)cc3)CC2)nc2cccnc12`, the EC50 was 0.0024 ± 0.00083 µM (HIV-1; viral replication, luciferase reporter; TZM-bl, NL4-3 wild type).
